Published values from different studies.
Lines come from different studies, so protocols differ. ± marks the error that the study gave.
Technique: steady-state kinetics
B1: protein P94L (Streptomyces coelicolor, UniProt P16544); chain MATQDSEVALVTGATSGIGLEIARRLGKEGLRVFVCARGEEGLRTTLKELREAGVEADGRTCDVRSVPEIEALVAAVVERYGPVDVLVNNAGRLGGGATAELADELWLDVVETNLTGVFRVTKQVLKAGGMLERGTGRIVNIASTGGKQGVVHAAPYSASKHGVVGFTKALGLELARTGITVNAVCPGFVETPMAASVREHYSDIWEVSTEEAFDRITARVPIGRYVQPSEVAEMVAYLIGPGAAAVTAQALNVCGGLGNY
B2: Saccharopine reductase Y99F (Saccharomyces cerevisiae, UniProt P38999); chain MGKNVLLLGSGFVAQPVIDTLAANDDINVTVACRTLANAQALAKPSGSKAISLDVTDDSALDKVLADNDVVISLIPYTFHPNVVKSAIRTKTDVVTSSFISPALRELEPEIVKAGITVMNEIGLDPGIDHLYAVKTIDEVHRAGGKLKSFLSYCGGLPAPEDSDNPLGYKFSWSSRGVLLALRNSAKYWKDGKIETVSSEDLMATAKPYFIYPGYAFVCYPNRDSTLFKDLYHIPEAETVIRGTLRYQGFPEFVKALVDMGMLKDDANEIFSKPIAWNEALKQYLGAKSTSKEDLIASIDSKATWKDDEDRERILSGFAWLGLFSDAKITPRGNALDTLCARLEELMQYEDNERDMVVLQHKFGIEWADGTTETRTSTLVDYGKVGGYSSMAATVGYPVAIATKFVLDGTIKGPGLLAPYSPEINDPIMKELKDKYGIYLKEKTVA
B3: putA G1011P (Rhodobacter capsulatus, UniProt D5AN87); chain MTDLSALGPKAKFAPEAEVLQALVAQAALPQPQLDRIAARGADLVARIRAEAKPSLMEHFLAQYGLSTREGVALMCLAEAMLRVPDTATIDALIEDKIAPSDWGKHLGTAASSLVNASTWALMLTGKVLDDGAGGIAGTLRGAMRRLGEPVIRAAVGQAMREMGRQFVLGETIEKALERAEKREAEGYTFSYDMLGEAALTAADAERYRLAYAQAITAIGKAATRGSIAANPGISIKLSALHPRYEVAQEARVMAELVPVVRDLARAAARAGIALHIDAEEQDRLALSLRVMAAVIADPETAGWEGFGAVVQAYGKRAGAAIDALAAMARAAGRRINIRLVKGAYWDAEMKRAQVEGHPGFPLFTSKTGTDVAYICLAAKLFGLNDCIYPQFATHNAHTVAAVLEMAAGRPFEFQRLHGMGARLHDIVLRETGGRCRIYAPVGAHRDLLAYLVRRLLENGANSSFVNQIVNESVPPAEVAACPFAALPTARAPRGLLAPADLFGAGRVNAQGFDLSDPEVLARIEAARDVTLPDAAPIVAGPVSGTLRPVRNPATGAVVAQVTEADAATVALALDAAQVWSAPAATRAAVLCRAADLYEENFGPIFAALAQEAGKTLGDAVSELREAVDFLRYYAAEGAADTRPPRGAVVAISPWNFPLAIFTGQVAAALMAGNAVLAKPAEQTPIIAALAVRLLHQAGVPETALQLLPGDGPTVGAALTRDPRVAGVVFTGSTETAQIIARAMAAHLAPGTPLIAETGGLNAMVVDSTALPEQAVRDVVASAFRSAGQRCSALRCLYVQDDIAPHLIGMLKGAMEELVSGDPARLSTDVGPVIDAEAKAGIETYLAANKARILHRSTAPEGGHFVAPALLQVGGIADLEREIFGPVLHLATFAAEDLPAVIAAINARGYGLTFGLHSRIDARVETVAETIRAGNIYVNRNQIGAVVGSQPFGGEGLSGTGPKAGGPLYLNRFYAPEPVVAVGGWTEAATPILPEARETQLDEIFLPGPTPELNRLTRHQRGPILCLGPGAEAASAQAAAVVALGGQAVQASGAVSPKALETLTPLAGVLWWGAAEMGRAYAQALAVRPGPLVPLITAKPDLAHVAHERHLCVDTTAAGGNAALLAG
B4: sucA (Escherichia coli, UniProt P0AFG3); chain MQNSALKAWLDSSYLSGANQSWIEQLYEDFLTDPDSVDANWRSTFQQLPGTGVKPDQFHSQTREYFRRLAKDASRYSSTISDPDTNVKQVKVLQLINAYRFRGHQHANLDPLGLWQQDKVADLDPSFHDLTEADFQETFNVGSFASGKETMKLGELLEALKQTYCGPIGAEYMHITSTEEKRWIQQRIESGRATFNSEEKKRFLSELTAAEGLERYLGAKFPGAKRFSLEGGDALIPMLKEMIRHAGNSGTREVVLGMAHRGRLNVLVNVLGKKPQDLFDEFAGKHKEHLGTGDVKYHMGFSSDFQTDGGLVHLALAFNPSHLEIVSPVVIGSVRARLDRLDEPSSNKVLPITIHGDAAVTGQGVVQETLNMSKARGYEVGGTVRIVINNQVGFTTSNPLDARSTPYCTDIGKMVQAPIFHVNADDPEAVAFVTRLALDFRNTFKRDVFIDLVCYRRHGHNEADEPSATQPLMYQKIKKHPTPRKIYADKLEQEKVATLEDATEMVNLYRDALDAGDCVVAEWRPMNMHSFTWSPYLNHEWDEEYPNKVEMKRLQELAKRISTVPEAVEMQSRVAKIYGDRQAMAAGEKLFDWGGAENLAYATLVDEGIPVRLSGEDSGRGTFFHRHAVIHNQSNGSTYTPLQHIHNGQGAFRVWDSVLSEEAVLAFEYGYATAEPRTLTIWEAQFGDFANGAQVVIDQFISSGEQKWGRMCGLVMLLPHGYEGQGPEHSSARLERYLQLCAEQNMQVCVPSTPAQVYHMLRRQALRGMRRPLVVMSPKSLLRHPLAVSSLEELANGTFLPAIGEIDELDPKGVKRVVMCSGKVYYDLLEQRRKNNQHDVAIVRIEQLYPFPHKAMQEVLQQFAHVKDFVWCQEEPLNQGAWYCSQHHFREVIPFGASLRYAGRPASASPAVGYMSVHQKQQQDLVNDALNVE
B5: enzyme (Levilactobacillus brevis, UniProt Q03Q85); chain MKVTVVGCTHAGTFAIKQILAEHPDAEVTVYERNDVISFLSCGIALYLGGKVADPQGLFYSSPEELQKLGANVQMNHNVLAIDPDQKTVTVEDLTNHAQTTESYDKLVMTSGSWPIVPKIPGIDSDRVKLCKNWAHAQALIEDAKEAKRITVIGAGYIGAELAEAYSTTGHDVTLIDAMARVMPKYFDADFTDVIEQDYRDHGVQLALGETVESFTDSATGLTIKTDKNSYETDLAILCIGFRPNTDLLKGKVDMAPNGAIITDDYMRSSNPDIFAAGDSAAVHYNPTHQNAYIPLATNAVRQGILVGKNLVKPTVKYMGTQSSSGLALYDRTIVSTGLTLAAAKQQGLNAEQVIVEDNYRPEFMPSTEPVLMSLVFDPDTHRILGGALMSKYDVSQSANTLSVCIQNENTIDDLAMVDMLFQPNFDRPFNYLNILAQAAQAKVAQSVNA
B6: hdhb (Clostridium sardiniense, UniProt G9FRD6); chain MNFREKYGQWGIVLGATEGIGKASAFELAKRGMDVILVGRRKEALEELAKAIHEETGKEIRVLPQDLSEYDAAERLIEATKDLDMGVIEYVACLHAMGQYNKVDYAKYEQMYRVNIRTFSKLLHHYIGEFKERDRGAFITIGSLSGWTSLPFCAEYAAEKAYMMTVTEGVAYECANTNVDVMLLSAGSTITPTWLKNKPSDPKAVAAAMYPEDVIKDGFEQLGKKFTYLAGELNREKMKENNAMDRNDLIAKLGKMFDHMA
B7: enzyme D235A (Thermococcus kodakarensis, UniProt Q5JID5); chain MLYVEILGNLPEMARDEVKAMLELGGGEIIGQDYLFLKVDAGEKAFPFLDRLGLAHEYGLLLVEADSVEELLQKAGEVEWPIKGAFKVDTETMANCRHDVLDLPRKLGAVIHAQGFRVNLSKPDTVVRVYCGERLYAGIRLRYFDPKDFEKRKAHHRPFFRPISLHPRVSRALVNLTKATREILDPFMGAGGILIEAGLLGLRVYGVDIRPEMVEGAETNLKHYGVRDYTLKLGAATRLEDLFPDKKFEAVATDPPYGTAATLAGRKRDELYRKALRSIYNVLEDGGRLAIAFPTDFNGKAEAEAVGFRTLGRYYQRVHKSLERYFYVFEK
B8: enzyme E385A (Sinorhizobium meliloti, UniProt Q92UV7); chain MTNAEVTIAVRHEPMRIAGRLVDTDDRVEVRYPWNDTVVGTVPAGRAEHAREAFAIAAAYQPKLTRYERQKILLATAEALAARKEEISDVITLELGISKADSLYEVGRAFDVFTLAGQMCIRDDGEIFSCDLTPHGKARKIFTMREPLTAISAITPFNHPLNMVAHKVAPAIATNNCVVVKPTELTPMTALLLADILYEAGLPPEMLSVVTGWPADIGMEMITNPHVDLVTFTGSVPVGKLIAANAHYKRQVLELGGNDPLIILNDLSDDDLARAADLAVAGATKNSGQRCTAVKRILCQESVADRFVPLVLERAKRLRFGDPMDRSTDLGTVIHEKAAALFEERVMRAAEEGADILYHPGRSGALLPPIVVDRVPHQSDLVLEATFGPIIPIVRVPDDDDATITLSNSTAFGLSSGVCTNDYRRMQKYIAGLKVGTVNIWEVPGYRIEMSPFGGIKDSGNGYKEGVIEAMKSFTNVKTFSLPWP
UniProt O60656, sequence (whole entry, looked up): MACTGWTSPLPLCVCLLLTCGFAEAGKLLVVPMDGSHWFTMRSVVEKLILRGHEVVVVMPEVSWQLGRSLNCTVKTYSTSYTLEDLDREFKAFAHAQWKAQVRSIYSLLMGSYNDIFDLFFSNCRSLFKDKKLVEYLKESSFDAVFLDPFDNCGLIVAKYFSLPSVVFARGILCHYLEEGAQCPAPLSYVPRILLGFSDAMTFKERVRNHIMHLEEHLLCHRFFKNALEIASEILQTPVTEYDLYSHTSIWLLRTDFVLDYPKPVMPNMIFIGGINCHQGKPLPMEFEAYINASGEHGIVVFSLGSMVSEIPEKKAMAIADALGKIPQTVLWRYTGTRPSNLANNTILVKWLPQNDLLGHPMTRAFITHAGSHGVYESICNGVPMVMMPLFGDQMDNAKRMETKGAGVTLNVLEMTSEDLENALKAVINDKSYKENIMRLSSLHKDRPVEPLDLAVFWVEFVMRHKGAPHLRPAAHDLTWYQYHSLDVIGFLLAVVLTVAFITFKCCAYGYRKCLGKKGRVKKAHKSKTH
UniProt P19337, sequence (whole entry, looked up): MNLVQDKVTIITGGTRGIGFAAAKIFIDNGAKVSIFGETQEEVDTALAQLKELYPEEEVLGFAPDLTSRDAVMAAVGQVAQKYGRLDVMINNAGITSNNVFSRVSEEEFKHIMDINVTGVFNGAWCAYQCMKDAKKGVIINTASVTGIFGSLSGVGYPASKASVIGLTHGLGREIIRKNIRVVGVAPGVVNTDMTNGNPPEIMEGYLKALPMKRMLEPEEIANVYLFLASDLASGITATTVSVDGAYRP

Molecule	substrate	pH	temperature	notes	together with	measurement	value
B1 (protein P94L)	O[C@H]1CCCc2ccccc21	pH 7.4		phosphate 400 mM, NADPH 250 µM printed	NADP+, reverse reaction	kcat	0.24 ± 0.03 s⁻¹
B2 (Saccharopine reductase Y99F)	N[C@@H](CCCCN[C@@H](CCC(=O)O)C(=O)O)C(=O)O	pH 9	25 °C		saccharopine	kcat	0.29 ± 0.01 s⁻¹
B3 (putA G1011P)	O=C(O)[C@@H]1CCCN1	pH 8	23 °C			kcat	22.4 ± 1.4 s⁻¹
BaiA2 (Clostridium scindens, UniProt P19337)	C[C@H](CCC(=O)SCCNC(=O)CCNC(=O)[C@H](O)C(C)(C)COP(=O)(O)OP(=O)(O)OC[C@H]1O[C@@H](n2cnc3c(N)ncnc32)[C@H](O)[C@@H]1OP(=O)(O)O)[C@H]1CC[C@H]2[C@@H]3[C@H](O)C[C@@H]4CC(=O)CC[C@]4(C)[C@H]3CC[C@]12C	pH 8.7	37 °C		NADH	kcat	0.167 s⁻¹
B4 (sucA)	O=C(O)C(=O)CO	pH 6.8	37 °C			kcat	0.0139 ± 0.0003 s⁻¹
B5 (enzyme)	NC(=O)C1=CN([C@@H]2O[C@H](COP(=O)(O)OP(=O)(O)OC[C@H]3O[C@@H](n4cnc5c(N)ncnc54)[C@H](O)[C@@H]3O)[C@@H](O)[C@H]2O)C=CC1	pH 7.5	37 °C	per site		kcat	648 ± 28 s⁻¹
B6 (hdhb)	NC(=O)c1ccc[n+]([C@@H]2O[C@H](COP(=O)(O)OP(=O)(O)OC[C@H]3O[C@@H](n4cnc5c(N)ncnc54)[C@H](O)[C@@H]3O)[C@@H](O)[C@H]2O)c1	pH 8	25 °C	cofactor varied		kcat	0.023 ± 0.001 s⁻¹
enzyme (Thermobifida fusca, UniProt Q47RK4)	CC(=O)SCCNC(=O)CCNC(=O)[C@H](O)C(C)(C)COP(=O)(O)OP(=O)(O)OC[C@H]1O[C@@H](n2cnc3c(N)ncnc32)[C@H](O)[C@@H]1OP(=O)(O)O	pH 7.4	37 °C			kcat	0.0035 ± 6.5e-05 s⁻¹
UGT1A9 (Homo sapiens, UniProt O60656)	O=C1[C@H](CC[C@H](O)c2ccc(F)cc2)[C@@H](c2ccc(O)cc2)N1c1ccc(F)cc1	pH 7.4	37 °C			Km	268 µM
B7 (enzyme D235A)	C[S+](CC[C@H](N)C(=O)O)C[C@H]1O[C@@H](n2cnc3c(N)ncnc32)[C@H](O)[C@@H]1O	pH 7.5	50 °C	apparent		kcat	0.00117 ± 0.0005 s⁻¹
enzyme (Acetivibrio thermocellus, UniProt A3DC45)	NC(=O)c1ccc[n+]([C@@H]2O[C@H](COP(=O)(O)OP(=O)(O)OC[C@H]3O[C@@H](n4cnc5c(N)ncnc54)[C@H](OP(=O)(O)O)[C@@H]3O)[C@@H](O)[C@H]2O)c1	pH 8	25 °C	cofactor varied, per site		kcat	35.6 s⁻¹
B8 (enzyme E385A)	NC(=O)c1ccc[n+]([C@@H]2O[C@H](COP(=O)(O)OP(=O)(O)OC[C@H]3O[C@@H](n4cnc5c(N)ncnc54)[C@H](O)[C@@H]3O)[C@@H](O)[C@H]2O)c1	pH 7.5	30 °C	cofactor varied		kcat	0.19 ± 0.03 s⁻¹

Excerpt of the above:
Molecule	substrate	pH	temperature	notes	together with	measurement	value
B7 (enzyme D235A)	C[S+](CC[C@H](N)C(=O)O)C[C@H]1O[C@@H](n2cnc3c(N)ncnc32)[C@H](O)[C@@H]1O	pH 7.5	50 °C	apparent		kcat	0.00117 ± 0.0005 s⁻¹
UGT1A9 (Homo sapiens, UniProt O60656)	O=C1[C@H](CC[C@H](O)c2ccc(F)cc2)[C@@H](c2ccc(O)cc2)N1c1ccc(F)cc1	pH 7.4	37 °C			Km	268 µM
